# Measurements pooled from the literature.
# ± gives the spread as reported.
# P2RX2: P2X purinoceptor 2 (P2RX2, Homo sapiens, UniProt Q9UBL9)
# Chain of UniProt P22736 (whole entry, looked up): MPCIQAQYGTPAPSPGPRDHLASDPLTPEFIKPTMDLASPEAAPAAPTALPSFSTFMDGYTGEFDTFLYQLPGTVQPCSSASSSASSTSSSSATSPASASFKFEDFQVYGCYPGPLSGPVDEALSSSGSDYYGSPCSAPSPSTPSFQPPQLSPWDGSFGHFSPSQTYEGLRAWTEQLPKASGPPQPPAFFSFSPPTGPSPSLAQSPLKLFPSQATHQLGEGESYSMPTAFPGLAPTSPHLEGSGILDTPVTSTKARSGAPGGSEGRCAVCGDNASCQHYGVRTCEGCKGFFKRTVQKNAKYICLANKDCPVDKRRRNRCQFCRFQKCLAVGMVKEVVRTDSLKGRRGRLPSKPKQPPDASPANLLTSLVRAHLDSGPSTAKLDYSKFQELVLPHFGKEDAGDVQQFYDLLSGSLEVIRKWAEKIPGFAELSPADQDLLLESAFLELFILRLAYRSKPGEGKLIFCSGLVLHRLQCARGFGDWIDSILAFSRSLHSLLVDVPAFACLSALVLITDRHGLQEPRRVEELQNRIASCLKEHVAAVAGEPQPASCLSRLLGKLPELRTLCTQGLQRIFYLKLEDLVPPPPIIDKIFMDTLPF
# Chain of UniProt Q9UBL9 (whole entry, looked up): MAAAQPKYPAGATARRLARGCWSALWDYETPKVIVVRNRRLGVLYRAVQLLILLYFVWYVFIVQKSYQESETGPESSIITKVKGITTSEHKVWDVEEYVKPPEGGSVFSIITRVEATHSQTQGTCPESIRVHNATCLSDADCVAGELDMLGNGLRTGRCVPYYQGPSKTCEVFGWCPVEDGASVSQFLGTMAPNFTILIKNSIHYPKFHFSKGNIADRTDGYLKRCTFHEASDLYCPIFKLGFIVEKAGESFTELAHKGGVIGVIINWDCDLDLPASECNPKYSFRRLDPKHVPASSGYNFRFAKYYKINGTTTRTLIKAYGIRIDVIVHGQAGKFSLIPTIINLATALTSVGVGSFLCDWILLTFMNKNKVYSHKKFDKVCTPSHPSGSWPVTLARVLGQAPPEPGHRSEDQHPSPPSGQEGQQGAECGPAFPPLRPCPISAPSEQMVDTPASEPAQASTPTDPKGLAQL
# Chain of UniProt Q03181 (whole entry, looked up): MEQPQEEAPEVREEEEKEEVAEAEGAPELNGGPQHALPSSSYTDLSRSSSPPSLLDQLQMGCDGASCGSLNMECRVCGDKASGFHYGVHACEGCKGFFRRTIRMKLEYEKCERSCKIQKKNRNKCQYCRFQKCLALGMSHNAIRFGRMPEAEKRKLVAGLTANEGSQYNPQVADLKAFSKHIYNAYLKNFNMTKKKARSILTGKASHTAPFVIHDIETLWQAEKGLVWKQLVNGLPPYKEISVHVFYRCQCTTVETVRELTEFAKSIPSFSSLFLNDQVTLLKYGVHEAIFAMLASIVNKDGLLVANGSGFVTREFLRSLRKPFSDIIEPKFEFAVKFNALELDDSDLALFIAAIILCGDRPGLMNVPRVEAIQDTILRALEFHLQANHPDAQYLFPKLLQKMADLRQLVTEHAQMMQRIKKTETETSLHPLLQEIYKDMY
# Chain of UniProt P12530 (whole entry, looked up): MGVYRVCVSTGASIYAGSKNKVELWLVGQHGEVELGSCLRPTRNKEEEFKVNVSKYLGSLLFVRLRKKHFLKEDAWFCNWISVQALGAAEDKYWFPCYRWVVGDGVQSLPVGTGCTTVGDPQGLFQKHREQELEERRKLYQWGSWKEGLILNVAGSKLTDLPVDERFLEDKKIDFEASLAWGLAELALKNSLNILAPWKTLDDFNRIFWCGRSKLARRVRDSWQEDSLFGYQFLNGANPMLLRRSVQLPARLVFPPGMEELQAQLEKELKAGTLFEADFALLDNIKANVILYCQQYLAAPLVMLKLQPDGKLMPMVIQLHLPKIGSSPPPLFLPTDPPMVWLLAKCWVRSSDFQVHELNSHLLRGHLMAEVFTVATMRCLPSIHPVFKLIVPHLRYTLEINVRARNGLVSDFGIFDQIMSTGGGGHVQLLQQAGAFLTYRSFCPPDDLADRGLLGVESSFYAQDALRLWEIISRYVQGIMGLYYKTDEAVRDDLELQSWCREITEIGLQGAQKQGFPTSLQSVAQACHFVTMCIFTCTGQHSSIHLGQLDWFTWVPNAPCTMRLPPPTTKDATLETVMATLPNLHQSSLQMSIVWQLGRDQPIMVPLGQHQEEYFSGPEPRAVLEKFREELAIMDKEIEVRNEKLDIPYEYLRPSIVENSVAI
# Chain of UniProt P40073 (whole entry, looked up): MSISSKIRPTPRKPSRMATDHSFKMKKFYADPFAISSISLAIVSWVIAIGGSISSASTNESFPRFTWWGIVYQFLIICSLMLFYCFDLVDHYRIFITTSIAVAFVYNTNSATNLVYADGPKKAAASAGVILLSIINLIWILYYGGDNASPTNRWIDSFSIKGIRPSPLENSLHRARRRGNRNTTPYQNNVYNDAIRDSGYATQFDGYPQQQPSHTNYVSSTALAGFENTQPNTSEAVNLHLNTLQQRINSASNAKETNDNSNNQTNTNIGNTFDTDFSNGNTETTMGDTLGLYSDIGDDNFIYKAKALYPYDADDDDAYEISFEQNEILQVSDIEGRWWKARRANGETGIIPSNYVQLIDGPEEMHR
# Chain of UniProt Q92499 (whole entry, looked up): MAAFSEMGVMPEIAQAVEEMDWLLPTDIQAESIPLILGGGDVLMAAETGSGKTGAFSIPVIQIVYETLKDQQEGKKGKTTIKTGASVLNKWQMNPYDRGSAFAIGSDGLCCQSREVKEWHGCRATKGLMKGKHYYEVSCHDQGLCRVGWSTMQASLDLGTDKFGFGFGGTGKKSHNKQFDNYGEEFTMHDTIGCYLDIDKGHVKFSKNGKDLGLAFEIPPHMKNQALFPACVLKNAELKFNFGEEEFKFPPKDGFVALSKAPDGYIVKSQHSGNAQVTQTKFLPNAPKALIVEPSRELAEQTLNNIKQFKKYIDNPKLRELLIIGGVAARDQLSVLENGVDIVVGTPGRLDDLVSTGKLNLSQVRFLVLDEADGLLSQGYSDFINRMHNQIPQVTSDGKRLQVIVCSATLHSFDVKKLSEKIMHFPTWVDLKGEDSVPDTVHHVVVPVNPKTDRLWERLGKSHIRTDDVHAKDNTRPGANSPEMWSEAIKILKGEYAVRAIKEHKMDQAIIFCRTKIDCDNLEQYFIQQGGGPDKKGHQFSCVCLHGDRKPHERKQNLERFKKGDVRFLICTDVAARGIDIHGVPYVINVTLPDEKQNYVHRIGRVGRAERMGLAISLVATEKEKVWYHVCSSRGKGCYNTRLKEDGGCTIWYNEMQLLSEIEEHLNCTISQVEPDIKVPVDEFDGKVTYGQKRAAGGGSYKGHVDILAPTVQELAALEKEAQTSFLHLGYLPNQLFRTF
# Chain of UniProt Q5AHG6 (whole entry, looked up): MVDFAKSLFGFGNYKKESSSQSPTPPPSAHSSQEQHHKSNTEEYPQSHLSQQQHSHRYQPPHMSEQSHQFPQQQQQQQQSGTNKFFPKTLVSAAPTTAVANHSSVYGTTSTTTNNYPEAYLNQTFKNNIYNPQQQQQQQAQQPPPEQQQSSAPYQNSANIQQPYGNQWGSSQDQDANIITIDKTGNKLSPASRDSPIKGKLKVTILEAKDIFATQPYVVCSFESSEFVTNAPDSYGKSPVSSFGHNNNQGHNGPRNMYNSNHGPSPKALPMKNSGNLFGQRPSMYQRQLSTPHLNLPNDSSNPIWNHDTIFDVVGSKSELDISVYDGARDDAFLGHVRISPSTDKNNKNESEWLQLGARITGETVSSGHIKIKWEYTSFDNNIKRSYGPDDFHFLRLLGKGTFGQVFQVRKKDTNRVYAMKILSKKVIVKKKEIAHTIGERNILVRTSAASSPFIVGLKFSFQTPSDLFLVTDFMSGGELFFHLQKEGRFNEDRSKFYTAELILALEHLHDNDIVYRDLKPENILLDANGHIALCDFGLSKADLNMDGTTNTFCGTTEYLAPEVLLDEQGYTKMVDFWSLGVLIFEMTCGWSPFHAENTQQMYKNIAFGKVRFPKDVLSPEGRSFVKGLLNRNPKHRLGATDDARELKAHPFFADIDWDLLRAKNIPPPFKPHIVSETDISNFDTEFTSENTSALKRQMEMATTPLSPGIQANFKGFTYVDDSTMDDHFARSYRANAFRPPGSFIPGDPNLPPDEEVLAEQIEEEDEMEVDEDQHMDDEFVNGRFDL
SMILES,tested on,test,system,setting,scale,quantity,value
Cn1cc(-c2ccc(-c3cncc(Cl)c3N3CCC4(CCNC4=O)CC3)cc2)cn1,COLO 205,"gene expression, microarray, measured: SLC8A1 mRNA",,"concentration not given, 6 h",reference: untreated cells,log2 fold change,1.54
CCOC(=O)c1cc(Cl)cc(NC(=O)c2sc(Cl)cc2S(=O)(=O)N(C)c2ccc(OCC)c(OC)c2)c1,"Peroxisome proliferator-activated receptor delta (PPARD, Homo sapiens, UniProt Q03181)",,,concentration not given,,activity,inactive
CCCCCCCC(=O)c1cc(OC)c(OC)c(OC)c1CC(=O)OCC,"Nuclear receptor subfamily 4 group A member 1 (NR4A1, Homo sapiens, UniProt P22736)","reporter gene, Gal4 hybrid reporter",,10 µM,reference: vehicle,activation,0.84 fold
O=C(Nc1ccccc1OS(=O)(=O)c1ccc([N+](=O)[O-])cc1)c1ccc2ncccc2c1,P2RX2,calcium mobilization,MCF7 stably transfected,"100 µM, added: ATP 100 µM",,fluorescence increase,80.8 ± 4.07%
CC(=O)Nc1ccc(S(=O)(=O)N2CCN(CC(O)COc3ccc4ccccc4c3)CC2)cc1 (stereo not shown),"Sodium channel protein type 8 subunit alpha, C-terminal domain (SCN8A, Homo sapiens, UniProt Q9UQD0)","binder, SPR",,,,kon,8770 ± 56 M⁻¹ s⁻¹
Cc1cc(Nc2cc(N3CCN(C)CC3)nc(Sc3ccc(NC(=O)C4CC4)cc3)n2)[nH]n1,"Misshapen-like kinase 1 (MINK1, Homo sapiens, UniProt Q8N4C8)","kinase activity, KinaseProfiler",,"0.03 µM, species human",reference: control,remaining activity,84%
CC1CCCN(C(=O)c2cc3ncccn3n2)C1 (stereo not shown),"ATP-dependent RNA helicase DDX1 (Homo sapiens, UniProt Q92499)","binding, affinity selection mass spectrometry",,,reference: other proteins in batch,log fold enrichment,-0.168
Nc1nnc(-c2cccc(Cl)c2Cl)c(N)n1,"Sodium channel protein type 5 subunit alpha (SCN5A, Homo sapiens, UniProt Q14524)",sodium current block kinetics,,25 µM,,slow recovery time constant,15.6 s
CCCCCCCCOC(=O)NS(=O)(=O)Nc1ccc(-c2cc3ccccc3[nH]2)cc1OC,"Polyunsaturated fatty acid lipoxygenase ALOX15 (Oryctolagus cuniculus, UniProt P12530)",,,"8 µM, added: arachidonic acid",,kcat,3.59 ± 0.41 s⁻¹
Nc1ncnc2c1ncn2[C@@H]1O[C@H](COP(=O)(O)OP(=O)(O)OP(=O)(O)O)[C@@H](O)[C@H]1O,P2RX2,"channel activation, agonist",transfected HEK293 cells,"physiological divalent cations, added: 2 mM Ca2+ and 0.5 mM Mg2+",,Hill coefficient,1.3 ± 0.2
CC(=O)N[C@H](C(=O)N[C@@H](CC(N)=O)C(=O)N[C@@H](CCCCN)C(=O)N1CCC[C@H]1C(=O)N[C@@H](CC(C)C)C(=O)N1CCC[C@H]1C(=O)N1CCC[C@H]1C(=O)N[C@@H](CC(C)C)C(=O)N1CCC[C@H]1C(=O)N[C@H](C(=O)N[C@@H](C)C(N)=O)C(C)C)C(C)C,"High osmolarity signaling protein SHO1, SH3 domain (SHO1, Saccharomyces cerevisiae, UniProt P40073)","ligand binding, FTIR spectroscopy, measured: asymmetric stretch band A",,"pH 7.0, SHO1 complex, added: 4 mM peptide",,wavenumber,2226.8 ± 0.7 cm⁻¹
c1coc(-c2n[nH]cc2-c2ccnc3ccccc23)c1,"Serine/threonine-protein kinase SCH9 (SCH9, Candida albicans, UniProt Q5AHG6)","kinase binding, MIB/MS competition",Candida albicans lysate,10 µM,"reference: DMSO, negative = stronger binding",log2 fold change,-0.43
Cc1cc2c(cc1N1C(=O)c3cccc4c(Cl)ccc(c34)C1=O)n(C)c(=O)n2C,"Protein polybromo-1, bromodomain 6 (PBRM1, Homo sapiens, UniProt Q86U86)","binding, thermal shift",,10 µM,higher = stronger binding,thermal shift,-0.7 °C
